Results gathered from unrelated publications.
Parts stem from different laboratories: compare values within a part only. Substitutions count along the parent as printed.

Study 1 — target: CCNA2, cyclin fold, Cln2 fusion (human); technique: yeast growth competition, sequencing; sample: yeast; notes: strong parent motif; relative to: not given; direction: higher = stronger binding; endpoint: normalised enrichment score
Starting sequence: ORC1 docking peptide (human); PRARKRLELGNLG
PRARERLELGNLG [K5E]: -0.0286
GRARKRLELGNLG [P1G]: 3.83
PRARKRLELGNNG [L12N]: 4.65
PRARKRLELGELG [N11E]: 5.1
PRGRKRLELGNLG [A3G]: 0.597
PRARKRLYLGNLG [E8Y]: 4.13
IRARKRLELGNLG [P1I]: 4.14
PRARKRFELGNLG [L7F]: 0.625
HRARKRLELGNLG [P1H]: 3.7
PRARKRLFLGNLG [E8F]: 5.07
PRVRKRLELGNLG [A3V]: 2.89
PRARKRLEIGNLG [L9I]: 2.35
PRARKRLELGVLG [N11V]: 4.91
PRARKNLELGNLG [R6N]: 1.31
PRARKRLELGNLW [G13W]: 3.32
PHARKRLELGNLG [R2H]: 4.29
PRAAKRLELGNLG [R4A]: 1.7
LRARKRLELGNLG [P1L]: 3.82

Study 2 — technique: aptamer microarray, sandwich; form: DNA with 2'F-ANA; sample: in vitro; concentration: 200 nM; together with: Cy3 exosite-II aptamer, 400 nM; direction: higher = stronger binding; endpoint: mean fluorescence intensity; oligonucleotide: GGTTGGTGTGGTTGG
Target: Prothrombin, mature alpha-thrombin (F2, Homo sapiens, UniProt P00734)
Notes: whole 15-mer aptamer, many near background
2'F-ANA at 2 6 8 9 10 11 13 14: 83.1 a.u.
2'F-ANA at 3 5 7 9 10 11 13 15: 56.6 a.u.
2'F-ANA at 1 3 4 5 6 8 12 14 15: 47.7 a.u.
2'F-ANA at 3 4 5 6 9 10 11 12 13 15: 53.7 a.u.
2'F-ANA at 1 2 5 6 8: 60.5 a.u.
2'F-ANA at 3 4 5 9 10 11 12 13 14 15: 55.8 a.u.
2'F-ANA at 3 8 9 10 12 14 15: 432 a.u.
2'F-ANA at 2 3 10 15: 399 a.u.
2'F-ANA at 1 4 6 8 9 11 14 15: 55.7 a.u.
2'F-ANA at 1 2 6 9 11 14 15: 56.1 a.u.
2'F-ANA at 1 3 6 10: 81.9 a.u.
2'F-ANA at 1 2 3 4 7 8 9: 164 a.u.
2'F-ANA at 1 3 4 12 15: 461 a.u.
2'F-ANA at 1 2 3 5 8 10 11 12 13 14: 48.1 a.u.
2'F-ANA at 1 2 3 6 7 10 12 13 15: 88 a.u.
2'F-ANA at 1 5 13 15: 47.1 a.u.
2'F-ANA at 1 2 4 6 8 9 12 15: 250 a.u.
2'F-ANA at 1 4 7 9 13 14: 50.3 a.u.
2'F-ANA at 2 3 4 8 9 10 11 12 15: 261 a.u.
2'F-ANA at 5 6 9 10 12 13: 91.7 a.u.
2'F-ANA at 2 3 4 6 7 12 13: 558 a.u.

Study 3 — technique: DHFR PCA, deep sequencing; sample: yeast; together with: (+)-ABA 200 µM; relative to: wild-type fitted maximum; direction: higher = stronger binding; endpoint: relative binding score
Target: ABI1, truncated, D143A, DHFR fusion (Arabidopsis thaliana)
Notes: methotrexate growth selection, single substitutions
Starting sequence: PYL1, truncated, DHFR fusion (Arabidopsis thaliana); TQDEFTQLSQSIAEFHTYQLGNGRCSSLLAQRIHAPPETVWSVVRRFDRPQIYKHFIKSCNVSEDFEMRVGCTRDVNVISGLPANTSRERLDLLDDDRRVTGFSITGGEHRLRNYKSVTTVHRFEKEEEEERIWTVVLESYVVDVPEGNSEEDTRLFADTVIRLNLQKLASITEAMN
E127W: 91.4%
L164D: 24.1%
T119I: 99.2%
I33D: -20.5%
S140P: 17.5%
L20D: 102%
Q167Y: 77.6%
L169K: 0.504%
R24A: 99.2%
G21N: 99.7%
N77D: 104%
E147L: 95.5%
Y115L: 40.7%
S140L: 4.4%
N85I: 101%
E174I: 72.3%
A158E: 3.76%
F124A: 102%
V136A: 76.7%
T6P: 105%
R49W: 51.1%
D96N: 92.6%
Q7V: 98.1%

Study 4 — technique: universal PBM; form: double-stranded DNA, one strand shown; sample: in vitro; concentration: 600 nM; direction: higher = stronger binding; endpoint: E-score
Target: Sal-like protein 4, full length isoform A (SALL4, Homo sapiens, UniProt Q9UJQ4, residues 1-1053)
Sequence of UniProt Q9UJQ4 (whole entry, looked up): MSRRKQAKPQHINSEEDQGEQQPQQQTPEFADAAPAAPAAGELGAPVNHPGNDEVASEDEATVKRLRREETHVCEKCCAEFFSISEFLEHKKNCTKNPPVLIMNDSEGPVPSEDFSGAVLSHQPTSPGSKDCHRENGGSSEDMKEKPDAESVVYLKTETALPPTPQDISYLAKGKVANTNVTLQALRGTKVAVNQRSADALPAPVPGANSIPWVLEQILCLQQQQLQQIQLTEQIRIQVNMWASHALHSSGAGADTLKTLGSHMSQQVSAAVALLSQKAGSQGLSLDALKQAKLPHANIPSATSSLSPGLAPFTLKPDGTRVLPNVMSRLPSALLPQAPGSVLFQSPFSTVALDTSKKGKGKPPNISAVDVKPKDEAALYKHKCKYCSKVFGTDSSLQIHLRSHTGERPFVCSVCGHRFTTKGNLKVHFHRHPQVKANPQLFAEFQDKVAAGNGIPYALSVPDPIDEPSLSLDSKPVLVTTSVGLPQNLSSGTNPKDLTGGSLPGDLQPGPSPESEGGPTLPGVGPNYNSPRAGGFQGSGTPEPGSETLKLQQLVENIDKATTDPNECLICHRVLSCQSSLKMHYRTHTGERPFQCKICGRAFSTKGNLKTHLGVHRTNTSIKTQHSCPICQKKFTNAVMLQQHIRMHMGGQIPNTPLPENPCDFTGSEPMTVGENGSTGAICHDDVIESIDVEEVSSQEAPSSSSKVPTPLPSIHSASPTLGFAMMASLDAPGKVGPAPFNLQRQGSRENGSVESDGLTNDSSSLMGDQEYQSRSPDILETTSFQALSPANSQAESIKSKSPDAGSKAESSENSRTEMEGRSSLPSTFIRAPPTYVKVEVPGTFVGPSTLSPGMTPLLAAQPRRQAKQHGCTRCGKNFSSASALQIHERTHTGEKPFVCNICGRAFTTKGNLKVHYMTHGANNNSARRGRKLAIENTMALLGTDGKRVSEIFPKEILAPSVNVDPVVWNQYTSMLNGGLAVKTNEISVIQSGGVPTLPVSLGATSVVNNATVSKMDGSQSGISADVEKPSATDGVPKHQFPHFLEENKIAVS
Notes: 8-mer, flanks averaged, mean of replicates
CGAGATCG: -0.146
ACTTAGCC: -0.103
CACCTAAA: -0.011
GGTTTTAA: 0.0674
ATGTACAA: 0.289
GTCCCGAA: -0.227
TTCTTAAA: 0.149
AAGCCGGG: -0.291
CAAGGACG: -0.231
GACTAGTA: 0.0825
CCTGCCCC: -0.323
ATTCGACA: 0.0626
CGATTTGC: -0.0656
ATCTACCC: -0.031
GATACAAA: 0.241
AATTCGGA: 0.0639

Study 5 — target: CDC34 UBC core domain (UniProt P49427); technique: yeast two-hybrid; sample: yeast; notes: mostly zero background; relative to: not given; direction: higher = stronger interaction; endpoint: lacZ reporter activity
B1: RNF182 RING domain (UniProt Q8N6D2); chain AESQASDELECKICYNRYNLKQRKPKVLECCHRVCAKCLYKIIDFGDSPQGVIVCPFCRFETCLPDDEV
B2: BFAR RING domain (UniProt Q9NZS9); chain GPQISVSEFSCHCCYDILVNPTTLNCGHSFCRHCLALWWASSKKTECPECREKWEGFPKVS
B3: RNF103 RING domain (UniProt O00237); chain WPADMLHCTECVVCLENFENGCLLMGLPCGHVFHQNCIVMWLAGGRHCCPVCRWPSYKKKQPY
Residues (chain): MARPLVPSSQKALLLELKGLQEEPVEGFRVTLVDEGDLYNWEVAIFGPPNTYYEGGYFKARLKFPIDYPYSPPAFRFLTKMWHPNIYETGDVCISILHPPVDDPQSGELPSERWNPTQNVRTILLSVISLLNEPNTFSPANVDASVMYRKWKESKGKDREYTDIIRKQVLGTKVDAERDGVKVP
B1 (RNF182 RING domain): 0
B2 (BFAR RING domain): 0
LVKDFNPYITCYICKGYLIKPTTVTECLHTFCKTCIVQHFEDSNDCPRCGNQVHETNPLE (PCGF5 RING domain (UniProt Q86SE9)): 0
FAEQPSVKLCCQLCCSVFKDPVITTCGHTFCRRCALKSEKCPVDNVKLTVVVNNI (TRAF7 RING domain (UniProt Q6Q0C0)): 0
B3 (RNF103 RING domain): 0
DDVLTKDAGECVICLEELLQGDTIARLPCLCIYHKSCIDSWFEVNRSCPEHPAD (ZNRF1 RING domain (UniProt Q8ND25)): 0
FDPPLESKYECPICLMALREAVQTPCGHRFCKACIIKSIRDAGHKCPVDNEILLENQLFP (TRAF6 RING domain (UniProt Q9Y4K3)): 0
EIKEYKARLTCPCCNTRKKDAVLTKCFHVFCFECVRGRYEARQRKCPKCNAAFGAHDFHR (RNF40 RING domain (UniProt O75150)): 0
ASEEEFQFLRCQQCQAEAKCPKLLPCLHTLCSGCLEASGMQCPICQAPWPLGADTP (PML RING domain (UniProt P29590)): 0

Excerpt of the above (study 1):
PRARKRLYLGNLG [E8Y]: 4.13
IRARKRLELGNLG [P1I]: 4.14
PRARKRFELGNLG [L7F]: 0.625
HRARKRLELGNLG [P1H]: 3.7
PRARKRLFLGNLG [E8F]: 5.07
PRVRKRLELGNLG [A3V]: 2.89
PRARKRLEIGNLG [L9I]: 2.35
PRARKRLELGVLG [N11V]: 4.91
PRARKNLELGNLG [R6N]: 1.31
PRARKRLELGNLW [G13W]: 3.32
